Published values gathered from unrelated publications.
Parts stem from different laboratories: compare values within a part only. Positions count from the first letter of the parent shown.

Block 1
Target: RING finger protein unkempt homolog, zinc fingers 1-6, GST-SBP tag (UNK, Homo sapiens, UniProt Q9C0B0, residues 30-357)
Method: RNA Bind-n-Seq
Form: RNA
Sample: in vitro
Tested at: not given
Setting: RNA with constant flanks, human and mouse sites, ends assumed
Reference: input RNA pool
Reading: higher = stronger binding
Shared flanks, not repeated: GGGAGUUCUACAGUCCGACGAUC … CAACAGAGGAUUGAGCAUCA
Construct (chain): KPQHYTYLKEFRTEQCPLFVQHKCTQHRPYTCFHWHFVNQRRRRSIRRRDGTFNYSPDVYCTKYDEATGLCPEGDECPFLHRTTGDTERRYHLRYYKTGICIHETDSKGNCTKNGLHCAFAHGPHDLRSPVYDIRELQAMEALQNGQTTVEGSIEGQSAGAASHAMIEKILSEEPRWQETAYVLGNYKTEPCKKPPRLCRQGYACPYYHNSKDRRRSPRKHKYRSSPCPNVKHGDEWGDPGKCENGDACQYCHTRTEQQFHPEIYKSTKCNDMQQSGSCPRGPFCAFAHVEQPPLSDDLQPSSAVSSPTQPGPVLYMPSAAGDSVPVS
Oligonucleotide | bound/input enrichment [ratio]
UUUGAAGUAAAGACCAUACAUGGGAGCAAGUCAGUGGACUCUGGGAUCUAUCUGGACAGUAGUUACAAAAUGGAUUAUCCUGAAAUGGGCAUAUGCAUAAUAAUUAAUAAUAAGAACUUC | 0.661
GAUGUUCAGAGAACUCUUUAUUUGGCCUGACCCCCUCUCUCAGUAUGCCUGAUCUCAGGAUUUGUUGGGGGAAAAAAAUCACAAAAAUAAGAUGAAAAGAAAUCUUUGUGCUUUGGGGUC | 0.104
GAACACCACACUGGUAAAGGUGAAAAAUGUUUUUCAGAGAGGGACUUUUCACCCCUUCAAACUCAAACAUUUAAUAGAGAAACAACUAUAAAAUGUUAUUCAACUCAGAUGAAGAUGGAA | 0.279
CCGACGACCAUCAUGAAUGCAGACAUUCUAGCCUACUGUCAGAAGGAAGGAUGGUGCAAACUCGCUUUUUACCUUCUAGCGUUUUUUUACUACCUAUACGGCAUGAUCUAUGUUCUGGUG | 0.515
UGUGUGUGUGUGUGUGUGUGUGUGUGUGUGUGUGUGUGAGAGAGAGAGAGAGAGAGAUUUGUUUGUAGCCCGUGAAGGCUCCAGCAUGCUGGUCUGACUACAAAGGCCACCUCCCUUACA | 0.906
AGGAGAAGUUGAGGGGAGCAUGCUUCCCUGCAGCUGACCGGGUCACACAAAGGCAUGCUGGAGUACCCAGCCUAUCAGGUGCCCCUCUUCCAAAGGCAGCGUGCCGAGCCAGCAAGAGGA | 0.0447
UUUCCCAUUUAGUUUUGGUCUGUUUUUAGAUAGAAUUGGAAGAAACUGUAUAGUUAACAUGAGCUAAGUUGUCAAACCUAUGAUCUGAAGGAACCAAGACAGUAAAGUAUUAUUCGUUUC | 3.77
GCGCUGCGCGGCGUCAUUGCUCCCGCCCUAUAUACCUACUUCCGCCCGCGAGCCACUUCCUUUCCUUUCAGCGGCGCGCGGCUGCAAGAUGGCGGUGCAGAUUUCCAAGAAGAGGAAGUU | 0.0979

Block 2
Target: CCND2, cyclin fold, Cln2 fusion (human)
Method: yeast growth competition, sequencing
Sample: yeast
Setting: weak parent motif
Reference: not given
Reading: higher = stronger binding
Parent: CENPC docking peptide (human); VKTKKRLNFDDKV
Variant | normalised enrichment score
VKAKKRLNFDDKV [T3A] | 0.0916
VKTKRRLNLDDKV [K5R F9L] | -0.00917
AKTKKRLNFDDKV [V1A] | 0.421
VKTKKRANFDDKV [L7A] | 0.212
VKTKKRLNFDDAV [K12A] | 0.35
VATKKRLNFDDKV [K2A] | 0.505
VKTKKRLNADDKV [F9A] | -0.0794

Block 3
Target: ABI1, truncated, D143A, DHFR fusion (Arabidopsis thaliana)
Method: DHFR PCA, deep sequencing
Sample: yeast
Setting: methotrexate growth selection, single substitutions
With: (+)-ABA 200 µM
Reference: wild-type fitted maximum
Reading: higher = stronger binding
Parent: PYL1, truncated, DHFR fusion (Arabidopsis thaliana); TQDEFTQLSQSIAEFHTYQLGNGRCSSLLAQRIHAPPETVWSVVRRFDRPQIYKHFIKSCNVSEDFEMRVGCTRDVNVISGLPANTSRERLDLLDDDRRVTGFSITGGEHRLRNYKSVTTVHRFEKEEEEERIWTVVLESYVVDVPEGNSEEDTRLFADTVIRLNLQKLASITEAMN
Variant | relative binding score [%]
T160V | 75.5
F66M | 95.9
Q7S | 100
E14R | 94.7
T73S | 100
Q167E | 101
L94M | 103
L20Q | 101

Mixed results
Substance | target | assay | test system | conditions | scale | endpoint | value
PhoQ, residues 284 288 289 292 302 303 STVVAA | PhoP, residues 12 14 15 18 19 HLGGL (Escherichia coli, UniProt P23836) | Sort-seq, refers to: YFP reporter | E. coli | PhoQ-PhoP variant library, with: 10 µM Mg2+ | reference: high Mg2+ state, higher = stronger signaling | fold induction | 1.04

For quick reference, copied from above (block 3):
Variant | relative binding score [%]
Q167E | 101
F66M | 95.9
L20Q | 101
T160V | 75.5
